Results pooled from the literature.
Parts stem from different laboratories: compare values within a part only. “And” joins repeats or separate records; there may be more than shown.

Series 1
Compound: CCN1/C(=C/C=C2\CCCC(/C=C/C3=[N+](CC)c4ccccc4C3(C)C)=C2NCCCCCCCCN2CCC(Nc3nc4ccccc4n3Cc3ccc(F)cc3)CC2)C(C)(C)c2ccccc21
Cell line: U-87 MG
Tested at: concentration not given
Relative to: DMSO
refers to	log2 fold change
TUBB4B mRNA	-1.8
GSPT2 mRNA	1.06
CHAF1A mRNA	-1.51
ERC2 mRNA	3.19
ARMCX4 mRNA	-1.31
IRAG1 mRNA	-3.97
TAGLN2 mRNA	-1.09
KNL1 mRNA	-2.28
FKBP7 mRNA	-1.24
ZNF267 mRNA	1.48
CFAP73 mRNA	-3.48
PDLIM2 mRNA	-1.22
SPDL1 mRNA	-1.36
RASGEF1B mRNA	2.97
ARL15 mRNA	0.983
STMN1 mRNA	-1.74

Series 2
Structure (SMILES): COc1cc(C(=O)OCCCN2CCCN(CCCOC(=O)c3cc(OC)c(OC)c(OCc4ccc([N+](=O)[O-])cc4)c3)CC2)cc(OC)c1OC
technique	host	route	dose	time	setting	paw withdrawal frequency
von Frey, 0.4 g filament	mouse, CFA inflammatory pain	intravenous	dose not given	24 h post-dose	first injection, day 1	90% and 80% and 70%
von Frey, 0.4 g filament	mouse, CFA inflammatory pain	intravenous	–	baseline before CFA	–	0% and 10% and 20%
von Frey test	mouse, spared nerve injury	intrathecal	100 nmol, third of 3 doses	24 h	–	90% and 60%
von Frey test	mouse, spared nerve injury	intrathecal	100 nmol, third of 3 doses	5 h	–	60% and 10% and 0% and 70%
von Frey, 0.4 g filament	mouse, CFA inflammatory pain	intravenous	dose not given	5 h post-dose	first injection, day 1	70% and 50% and 90% and 60%
von Frey, 0.4 g filament	mouse, CFA inflammatory pain	subcutaneous	10 mg/kg	3 h post-dose	third injection, day 5	50% and 40%
von Frey test	mouse, spared nerve injury	intrathecal	100 nmol, third of 3 doses	3 h	–	10% and 30% and 20%
von Frey, 0.4 g filament	mouse, CFA inflammatory pain	subcutaneous	10 mg/kg	baseline before CFA	–	10% and 0%

Series 3
SMILES: CC(C)(C)c1ccc(Oc2ccc3c(c2)OC(O)(C(=O)O)C(=O)N3Cc2ccccc2)cc1 (stereo not shown)
organism	assay	test system	conditions	scale	inhibition
Oryza sativa	fresh weight	–	soil surface spray, 150 g ai/ha, 21 days, pre-emergence crop safety	–	8% and 9.2% and 7%
Arabidopsis thaliana	root length	Col-0, seedlings	12.5 µg/mL	relative to: water control	38.5%
Arabidopsis thaliana	root length	Col-0, seedlings	12.5 µg/mL	–	38.5%
Arabidopsis thaliana	hypocotyl length	Col-0, seedlings	3.125 µg/mL	–	4.64%
Arabidopsis thaliana	root length	Col-0	12.5 µg/mL, 7 days, seed germination, dark	–	38.5%
Arabidopsis thaliana	root length	Col-0	3.13 µg/mL, 7 days, seed germination, dark	–	7.7%
Arabidopsis thaliana	root length	Col-0	25.0 µg/mL, 7 days, seed germination, dark	–	51.2%
Arabidopsis thaliana	root length	Col-0, seeds	100 µg/mL, 7 d, dark	–	89.7%
Alopecurus aequalis	fresh weight	–	150 g ai/ha, pre-emergence treatment	–	84.2% and 83.1% and 80.5%
Triticum aestivum	fresh weight	–	soil surface spray, 150 g ai/ha, 21 days, pre-emergence crop safety	–	16.9% and 15.4% and 14.8%
Arabidopsis thaliana	root length	Col-0, seedlings	100 µg/mL	relative to: water control	89.7%
Arabidopsis thaliana	hypocotyl length	Col-0, seedlings	25 µg/mL	–	28.2%
Arabidopsis thaliana	hypocotyl length	Col-0	3.125 µg/mL, 7 days, seed germination, dark	–	4.6%
Arabidopsis thaliana	root length	Col-0, seedlings	6.25 µg/mL	–	22.6%

Series 4
Cell line: MDA-MB-468
Effect on: cell viability
Technique: CellCounting-Lite
Tested at: 74.07 nM
Temperature: 37 °C
Reading: higher = more viable cells
Structure (SMILES)	luminescence signal
Cn1cc(-n2cnc3c(NCc4nc5cc(Cl)c(Cl)cc5[nH]4)nc(N4CCNCC4)nc32)cn1	77600 a.u. and 65700 a.u. and 75900 a.u.
CC(=O)N1CCN(c2nc(NCc3nc4cc(Cl)c(Cl)cc4[nH]3)c3ncn(C(C)C)c3n2)CC1	473000 a.u. and 445000 a.u. and 502000 a.u.
CCn1cnc2c(NCc3nc4cc(Cl)c(Cl)cc4[nH]3)nc(N3CCC(NC(C)=O)CC3)nc21	249000 a.u. and 241000 a.u. and 256000 a.u.
CCn1cnc2c(NCc3nc4cc(Cl)c(Cl)cc4[nH]3)nc(N3CCN(C(C)=O)CC3)nc21	38100 a.u. and 31800 a.u. and 37700 a.u.
CCn1cnc2c(NCc3nc4cc(Cl)c(Cl)cc4[nH]3)nc(N3CCN(Cc4ccncc4)CC3)nc21	116000 a.u. and 128000 a.u. and 102000 a.u.
CCn1cnc2c(NCc3nc4cc(Cl)c(Cl)cc4[nH]3)nc(N3CCN(C(=O)c4ccncc4)CC3)nc21	39100 a.u. and 38300 a.u. and 28900 a.u.
CCn1cnc2c(NCc3nc4cc(Cl)c(Cl)cc4[nH]3)nc(N3CCN(C(=O)c4ccccn4)CC3)nc21	52700 a.u. and 34900 a.u. and 27800 a.u.
CCn1cnc2c(NCc3nc4ccc(F)c(F)c4[nH]3)nc(N3CCn4ncnc4C3)nc21	174000 a.u. and 169000 a.u. and 168000 a.u.
CCn1cnc2c(NCc3nc4cc(Cl)c(Cl)cc4[nH]3)nc(N3CCN(S(C)(=O)=O)CC3)nc21	89300 a.u. and 80500 a.u. and 69900 a.u.
CCn1cnc2c(NCc3nc4cc(Cl)c(Cl)cc4[nH]3)nc(N3CCn4ncnc4C3)nc21	33800 a.u. and 47900 a.u. and 40200 a.u.
CCn1cnc2c(NCc3nc4cc(F)c(F)cc4[nH]3)nc(N3CCn4ncnc4C3)nc21	225000 a.u. and 275000 a.u. and 241000 a.u.
